Experimental data of several laboratories.
Several values in a cell are separate wells, animals, samples, runs or records. ± marks the error that the study gave. Converted amounts (≈) assume the structure as drawn.

| Structure (SMILES) | organism | assay | test system | setting | scale | quantity | value |
| --- | --- | --- | --- | --- | --- | --- | --- |
| N#Cc1ncn(COCCOCc2ccccc2)c1C#N | Severe acute respiratory syndrome coronavirus | viral replication | Vero | 48 h |  | IC50 | 30 mg/L |
| [O-][N+]1=C(c2ccsc2)C2=NCCCN2c2ccccc21 | Clostridium perfringens |  |  |  |  | MIC90 | 8 mg/L (≈ 28.2 µM) |
| COC(=O)c1ncn(CCO)c1C(=O)OC | Mammarenavirus lassaense | viral replication | Vero | 48 h |  | IC90 | > 50 mg/L |
| COc1ccc(C2=[N+]([O-])c3ccccc3N3CCN=C23)cc1 | Clostridium perfringens |  |  |  |  | MIC90 | 1 mg/L (≈ 3.41 µM) |
| O=C(O)CCCC1C2CCCN3CCCC(CN1S(=O)(=O)c1ccc(Cl)cc1)C23 (stereo not drawn) | Ebola virus |  |  | EBOV GP pseudotyped HIV | baseline: CC50 over IC50 | selectivity index | 6.62 |
| Oc1c(Cl)cc(Cl)c2cccnc12 | Shigella dysenteriae | microbial growth, agar dilution |  |  |  | MIC | 37.4 µM |
| CC(C)CC(C(=O)N1CC2(CC1C#N)C(=O)Nc1ccccc12)N(C)C(=O)c1cc2c(F)cc(F)c(F)c2[nH]1 (stereo not drawn) | SARS-CoV-2 | viral replication, infectious virus | Vero E6 | 1.111 µM |  | inhibition | 99.6% |
| CN1CCN(C(=O)N[C@@H](Cc2ccccc2)C(=O)N[C@H](/C=C/S(=O)(=O)c2ccccc2)CCc2ccccc2)CC1 | Marburg marburgvirus | viral entry | HEK-293T | pseudovirus |  | IC50 | 0.0019 ± 0.00016 µM |
| O=[N+]([O-])c1ccc(C2=[N+]([O-])c3ccccc3N3CCCN=C23)cc1 | Clostridium perfringens |  |  |  |  | MIC | 0.25 to 2 mg/L |
| CCCC1(CN2c3ccccc3Sc3ccccc32)CCN(CC)C1 (stereo not drawn) | SARS coronavirus |  | Vero 76, Urbani |  |  | EC90 | 10.3 ± 5.4 µM |
| O=C(C=Cc1ccc(O)c(O)c1)OC1CC(O)(C(=O)O)CC(OC(=O)C=Cc2ccc(O)c(O)c2)C1O (stereo not drawn) | Severe acute respiratory syndrome coronavirus 2 | cytopathic effect, inhibitor | Vero C1008 | 12.5 µM |  | inhibition | 0% |
| CC(C)=CCc1c(O)ccc(-c2coc3cc(O)cc(O)c3c2=O)c1O | SARS-CoV-2 trVLP |  | Caco-2-N |  | baseline: CC50 over EC50 | selectivity ratio | > 5 |
| Cc1ccc(N2CCN(C)CC2)cc1C(=O)NC1(c2ccc3c4c(cccc24)CC3)CC1 | SARS-CoV-2 | viral replication | Vero C1008, wild type | 0.005716 µM |  | inhibition | 0% |
| [O-][N+]1=C(c2ccccc2)C2=NCCN2c2ccccc21 | Clostridium perfringens |  |  |  |  | MIC | 0.5 to 1 mg/L |
| Cc1ccc(NS(=O)(=O)c2c(C(=O)N3CCCCCC3)c(C)n(C)c2C)c(Cl)c1 | Monkeypox virus | qPCR | Vero C1008, wild type | 0.16 µM, 72 h | baseline: untreated | relative infection | 44.8% and 30.7% and 49.4% |
| O=[N+]([O-])c1ccc(-n2nc(-c3ccc(F)cc3)cc2-c2ccc(F)cc2)c([N+](=O)[O-])c1 | Japanese encephalitis virus |  | SA14-14-2, BALB/c mice, brain | ip, 100 mg/kg/day | baseline: untreated | viral RNA reduction | ~43% |
| CC[C@@H](C)[C@@H](NC(=O)[C@@H](CCCCN)NC(=O)[C@@H](CCCCN)NC(=O)[C@@H](CC(C)C)NC(=O)[C@@H](Cc1c[nH]c2ccccc12)NC(=O)CN)C(=O)NCC(=O)N[C@H](CCCCN)C(=O)N[C@H](CCCCN)C(=O)N[C@@H](C(=O)N[C@H](CCC(=O)O)C(=O)N[C@H](CCCNC(=N)N)C(=O)N[C@@H](C(=O)NCC(=O)N[C@H](CCC(N)=O)C(=O)N[C@H](Cc1c[nH]cn1)C(=O)N[C@@H](C(=O)N[C@H](CCCNC(=N)N)C(=O)N[C@H](CC(=O)O)C(=O)N[C@H](C)C(=O)N[C@@H](C(=O)N[C@@H](C(=O)N[C@H](CCC(N)=O)C(=O)N[C@@H](C(=O)N[C@@H](C(=O)NCC(=O)N[C@@H](C(=O)N[C@H](C)C(=O)N[C@H](CCC(N)=O)C(=O)N[C@H](CCC(N)=O)C(=O)N[C@H](C)C(=O)N[C@H](C)C(=O)N[C@H](CC(N)=O)C(=O)N[C@@H](C(=O)N[C@H](C)C(=O)N[C@H](C)C(=O)N[C@@H](C(=O)N[C@H](CC(C)C)C(=O)N[C@H](CCCCN)C(N)=O)[C@H](C)O)C(C)C)C(C)C)[C@H](C)CC)[C@H](C)O)[C@H](C)CC)[C@H](C)O)[C@H](C)O)C(C)C)[C@H](C)CC | Escherichia coli, Acinetobacter baumannii |  | RKI 131/08, ATCC 19606, RKI 19/09 |  |  | MIC | 128 to 256 mg/L |
| CN[C@@H]1[C@H](O)[C@H](NC)[C@H]2O[C@]3(O)[C@H](O[C@@H]2[C@H]1O)O[C@H](C)C[C@H]3NC(=O)Cc1ccccn1 | Bacillus anthracis | microbial growth | STERNE34F2 |  |  | MIC | 50 mg/L |
| Oc1cc(Br)ccc1Oc1ccccc1 | Francisella tularensis | bacterial growth | LVS |  |  | MIC90 | 0.004 ± 0.001 mg/L (≈ 0.0151 µM) |
| COC(=O)c1ncn(CCOP(=O)(O)O)c1C(=O)OC | Severe acute respiratory syndrome coronavirus | viral replication | Vero | 48 h |  | IC50 | 32 mg/L |
| Cc1ccc(-c2cc(-c3ccccc3)nn2-c2ccc([N+](=O)[O-])cc2[N+](=O)[O-])cc1 | Japanese encephalitis virus | viral replication | SA14-14-2 | 5 µM, co- and post-treatment |  | plaque reduction | ~10% |

Repeated from above:
| Structure (SMILES) | organism | assay | test system | setting | scale | quantity | value |
| --- | --- | --- | --- | --- | --- | --- | --- |
| [O-][N+]1=C(c2ccccc2)C2=NCCN2c2ccccc21 | Clostridium perfringens |  |  |  |  | MIC | 0.5 to 1 mg/L |
